# Experimental data from different studies.
# Compare with care: the assays were run in different laboratories. ± gives the spread as reported.
# Organism: Escherichia coli
Structure (SMILES),assay,system,conditions,scale,MIC
CC(C)(C)OCC1NC(=O)C(C(=O)NC(C(=O)NC2C(=O)N3C2SC(C)(C)C3C(=O)O)c2ccccc2)=C1O (stereo not drawn),broth microdilution,JW0790-2 fiu deletion mutant,ferric iron uptake gene,,25 µg/mL
Cc1cc(-c2cn[nH]c2-c2cccc(OCc3cccc(C#N)c3)c2)cc(C)n1,broth microdilution,ΔrfaC JW3596,,,0.06 µg/mL
N=C(N)c1cccc(OCc2ccc(COc3cccc(C(=N)N)c3)cc2)c1,,mcr-1,"20 h, in combination, checkerboard, together with: rifampicin",,50 µg/mL
CC1(C)SC2C(NC(=O)C(NC(=O)C3=C(O)C4(CC4)NC3=O)c3ccccc3)C(=O)N2C1C(=O)O (stereo not drawn),broth microdilution,"ATCC 35218, low-level TEM-1",together with: clavulanic acid 6 µg/mL,,200 µg/mL
CC[C@H](C)[C@H](NC(=O)CN)C(=O)NCC(=O)N[C@@H](CCCCN)C(=O)N[C@@H](Cc1ccccc1)C(=O)N[C@@H](CC(C)C)C(=O)N[C@@H](Cc1c[nH]cn1)C(=O)N[C@@H](CO)C(=O)N[C@@H](C)C(=O)N[C@@H](CCCCN)C(=O)N[C@@H](CCCCN)C(=O)N[C@@H](Cc1ccccc1)C(=O)NCC(=O)N[C@@H](CCCCN)C(=O)N[C@@H](C)C(=O)N[C@@H](Cc1ccccc1)C(=O)N[C@H](C(=O)NCC(=O)N[C@@H](CCC(=O)O)C(=O)N[C@H](C(=O)N[C@@H](CCSC)C(=O)N[C@@H](CC(N)=O)C(=O)N[C@@H](CO)C(=O)O)[C@@H](C)CC)C(C)C,broth dilution,K12 BW25113,"18 h, 37 °C",,38 µM
CC[C@H](C)[C@H](NC(=O)CNC(=O)[C@H](CC(=O)O)NC(=O)[C@H](CCCNC(=N)N)NC(=O)[C@@H](NC(=O)[C@H](CC(N)=O)NC(=O)[C@H](CCCNC(=N)N)NC(=O)CNC(=O)[C@@H](NC(=O)[C@H](CCCCN)NC(=O)[C@H](CCC(=O)O)NC(=O)[C@@H](NC(=O)[C@H](CCCCN)NC(=O)[C@H](CCCCN)NC(=O)[C@H](Cc1ccccc1)NC(=O)[C@@H](NC(=O)[C@H](CCCCN)NC(=O)[C@H](Cc1c[nH]c2ccccc12)NC(=O)[C@@H](N)CCCNC(=N)N)[C@@H](C)CC)[C@@H](C)CC)C(C)C)C(C)C)C(=O)N[C@H](C(=O)N[C@@H](CCCCN)C(=O)N[C@@H](C)C(=O)NCC(=O)NCC(=O)N[C@@H](C)C(=O)N[C@H](C(=O)N[C@@H](C)C(=O)N[C@H](C(=O)N[C@H](C(=O)NCC(=O)N[C@@H](CCC(N)=O)C(=O)N[C@@H](C)C(=O)N[C@@H](C)C(=O)N[C@H](C(=O)N[C@H](C(=O)N[C@H](C(=O)N[C@@H](CCCCN)C(N)=O)C(C)C)C(C)C)[C@@H](C)O)C(C)C)C(C)C)C(C)C)[C@@H](C)CC,,"KCTC 1682, Mueller-Hinton broth","16 h, 37 °C",growth inhibition over 99%,1 µM
C[C@@H](O)[C@H](NC(=O)[C@H](Cc1ccccc1)NC(=O)[C@H](Cc1c[nH]c2ccccc12)NC(=O)[C@H](Cc1ccccc1)NC(=O)[C@@H](NC(=O)[C@H](Cc1ccccc1)NC(=O)[C@H](CCCNC(=N)N)NC(=O)[C@@H](N)CCCNC(=N)N)[C@@H](C)O)C(=O)N[C@@H](Cc1ccccc1)C(=O)N[C@@H](CCCNC(=N)N)C(=O)N[C@@H](CCCNC(=N)N)C(N)=O,,UB1005,"24 h, 37 °C",,8 µM
CC[C@H](C)[C@H](NC(=O)CNC(=O)[C@H](CC(=O)O)NC(=O)[C@H](CCCNC(=N)N)NC(=O)[C@@H](NC(=O)[C@H](CC(N)=O)NC(=O)[C@H](CCCNC(=N)N)NC(=O)CNC(=O)[C@@H](NC(=O)[C@H](CCCCN)NC(=O)[C@H](CCC(=O)O)NC(=O)[C@@H](NC(=O)[C@H](CCCCN)NC(=O)[C@H](CCCCN)NC(=O)[C@H](C)NC(=O)[C@@H](NC(=O)[C@H](CCCCN)NC(=O)[C@H](C)NC(=O)[C@@H](N)CCCNC(=N)N)[C@@H](C)CC)[C@@H](C)CC)C(C)C)C(C)C)C(=O)N[C@H](C(=O)N[C@@H](CCCCN)C(=O)N[C@@H](C)C(=O)NCC(=O)N1CCC[C@H]1C(=O)N[C@@H](C)C(=O)N[C@H](C(=O)N[C@@H](C)C(=O)N[C@H](C(=O)N[C@H](C(=O)NCC(=O)N[C@@H](CCC(N)=O)C(=O)N[C@@H](C)C(=O)N[C@@H](C)C(=O)N[C@H](C(=O)N[C@H](C(=O)N[C@H](C(=O)N[C@@H](CCCCN)C(N)=O)C(C)C)C(C)C)[C@@H](C)O)C(C)C)C(C)C)C(C)C)[C@@H](C)CC,,"K1 ATCC 700973, Mueller-Hinton broth","16 h, 37 °C",growth inhibition over 99%,8 µM
CC[C@H](C)[C@H](NC(=O)[C@H](CC(C)C)NC(=O)[C@H](CCCCN)NC(=O)[C@@H](NC(=O)[C@H](C)NC(=O)[C@H](CCC(=O)O)NC(=O)[C@H](Cc1c[nH]cn1)NC(=O)[C@@H](NC(=O)[C@H](CCCCN)NC(=O)[C@H](CCC(N)=O)NC(=O)[C@H](Cc1ccccc1)NC(=O)[C@@H](N)C(C)C)[C@@H](C)CC)[C@@H](C)CC)C(N)=O,broth microdilution,CCARM 1229 resistant,"18 h, 37 °C",,> 128 µM
CC[C@H](C)[C@H](NC(=O)CNC(=O)[C@H](C)NC(=O)[C@@H](NC(=O)[C@@H](NC(=O)[C@@H](NC(=O)[C@H](CCCNC(=N)N)NC(=O)[C@@H](NC(=O)[C@@H](NC(=O)[C@@H](NC(=O)[C@@H]1CCCN1C(=O)[C@H](Cc1c[nH]c2ccccc12)NC(=O)[C@@H](NC(=O)[C@H](CCCNC(=N)N)NC(=O)[C@H](CCCCN)NC(=O)[C@@H](NC(=O)[C@@H](N)CCCNC(=N)N)[C@@H](C)CC)C(C)C)C(C)C)C(C)C)[C@@H](C)CC)[C@@H](C)O)C(C)C)C(C)C)C(=O)N[C@@H](CC(N)=O)C(=O)N[C@@H](CC(C)C)C(=O)N[C@@H](Cc1ccc(O)cc1)C(=O)N[C@@H](CCCNC(=N)N)C(=O)N[C@@H](C)C(=O)N[C@H](C(=O)N[C@@H](CCCCN)C(=O)N[C@@H](CCCNC(=N)N)C(=O)N[C@@H](CCCCN)C(=O)O)[C@@H](C)CC,broth microdilution,"K88, Mueller-Hinton broth",37 °C,,0.707 µM
O=C(O)CN1CCN(CC(=O)O)CCN(CC(=O)O)CCN(CC(=O)O)CC1,,NDM-1 producing,compound alone,,> 2000 µM
CC[C@H](C)[C@H](NC(=O)[C@H](CC(C)C)NC(=O)[C@@H](NC(=O)[C@H](CCCNC(=N)N)NC(=O)[C@H](CCCNC(=N)N)NC(=O)[C@H](CCCNC(=N)N)NC(=O)[C@@H](N)CCCNC(=N)N)[C@@H](C)CC)C(=O)N[C@@H](CCCCN)C(=O)N[C@@H](CCCCN)C(=O)N[C@H](C(=O)N[C@@H](CC(C)C)C(=O)N[C@@H](CCCCN)C(=O)N[C@@H](CC(C)C)C(=O)N[C@@H](CCCCN)C(=O)N[C@@H](CO)C(=O)N[C@@H](CO)C(=O)N[C@@H](C)C(=O)N[C@@H](Cc1ccc(O)cc1)C(N)=O)C(C)C,checkerboard,,"24 h, 37 °C, alone, rifampicin plate",,32 µM
CNC(C)[C@@H]1CC[C@@H](N)[C@@H](O[C@H]2[C@H](O)[C@@H](O[C@H]3OC[C@](C)(O)[C@H](NC)[C@H]3O)[C@H](N)C[C@@H]2N)O1 (stereo partly drawn),broth microdilution,G92,18 h,,64 µg/mL
CC[C@H](C)[C@H](NC(=O)[C@H](CC(C)C)NC(=O)[C@H](CCCNC(=N)N)NC(=O)[C@@H](N)CCCNC(=N)N)C(=O)N[C@@H](CCCNC(=N)N)C(=O)N[C@@H](CCCCN)C(=O)N[C@@H](CC(C)C)C(=O)N[C@@H](CCCCN)C(=O)NCC(=O)N1CCC[C@H]1C(=O)N[C@H](C(=O)N[C@H](C(=O)N[C@@H](Cc1ccc(O)cc1)C(=O)N[C@@H](CC(C)C)C(=O)N[C@@H](Cc1ccc(O)cc1)C(=O)N[C@@H](Cc1ccccc1)C(=O)N[C@@H](CCCCN)C(=O)N[C@@H](CC(C)C)C(=O)N[C@@H](CCC(N)=O)C(=O)N[C@@H](CC(C)C)C(=O)N[C@@H](CC(C)C)C(=O)N[C@@H](CCCCN)C(=O)N[C@@H](CCCCN)C(N)=O)[C@@H](C)CC)[C@@H](C)CC,broth microdilution,"KCTC 1682, Mueller-Hinton broth","24 h, 37 °C",,32 µM
CC[C@H](C)[C@H](NC(=O)[C@H](CC(N)=O)NC(=O)[C@H](Cc1ccccc1)NC(=O)[C@H](CCCNC(=N)N)NC(=O)[C@H](CCCNC(=N)N)NC(=O)[C@@H](N)CCCCN)C(=O)N[C@@H](CCCCN)C(=O)N[C@@H](CC(C)C)C(=O)N[C@@H](Cc1c[nH]c2ccccc12)C(=O)N[C@@H](CCCCN)C(=O)N[C@H](C(=O)N[C@@H](Cc1ccccc1)C(=O)O)[C@@H](C)O,,K12 MG1655,,,50 µg/mL
CC1(C)CC[C@]2(C(=O)O)CC[C@]3(C)C(=CC[C@@H]4[C@@]5(C)CC[C@H](O)C(C)(C)[C@@H]5CC[C@]43C)[C@@H]2C1,,BL21 pET28a-TEM-1,,,512 µg/mL
CN(C)c1cc(NC(=O)CNC(C)(C)C)c(O)c2c1C[C@H]1C[C@H]3[C@H](N(C)C)C(O)=C(C(N)=O)C(=O)[C@@]3(O)C(O)=C1C2=O,,DH5a clone with KPC-136,,,0.125 µg/mL
c1ccc(CCOC2CCCc3c2[nH]c2ccccc32)cc1 (stereo not drawn),broth microdilution,MB5746 efflux-deficient hyperpermeable,,,> 32 µg/mL
CC[C@H](C)[C@H](N)C(=O)N[C@@H](CCCNC(=N)N)C(=O)N[C@H](C(=O)N[C@@H](Cc1c[nH]c2ccccc12)C(=O)N[C@@H](CCCCN)C(=O)N[C@@H](CCCCN)C(=O)N[C@@H](Cc1ccccc1)C(=O)N[C@H](C(=O)N[C@@H](CCCNC(=N)N)C(=O)N[C@@H](CCCCN)C(=O)N[C@@H](CCSC)C(=O)N[C@@H](CCCCN)C(=O)N[C@@H](C)C(=O)N[C@H](C(=O)N[C@@H](Cc1ccc(O)cc1)C(=O)N[C@@H](Cc1c[nH]cn1)C(N)=O)[C@@H](C)CC)C(C)C)C(C)C,broth dilution,"ATCC 25922, Mueller-Hinton broth","24 h, 37 °C",,50 µM
CC[C@H](C)[C@H](NC(=O)[C@H](C)NC(=O)[C@H](CCC(N)=O)NC(=O)[C@@H](NC(=O)[C@@H](NC(=O)[C@H](CCCNC(=N)N)NC(=O)[C@@H](N)CCCCN)[C@@H](C)CC)C(C)C)C(=O)N[C@@H](CCCCN)C(=O)N[C@@H](CC(=O)O)C(=O)N[C@@H](Cc1ccccc1)C(=O)N[C@@H](CC(C)C)C(=O)N[C@@H](CCCNC(=N)N)C(N)=O,broth microdilution,K12,"16 h, 37 °C",,40 ± 20 µM
CC1(C)S[C@@H]2[C@H](NC(=O)[C@H](N)c3ccccc3)C(=O)N2[C@H]1C(=O)O,,BL21(DE3) wild type,,,< 1.75 µg/mL

# Repeated from above:
Structure (SMILES),assay,system,conditions,scale,MIC
CN(C)c1cc(NC(=O)CNC(C)(C)C)c(O)c2c1C[C@H]1C[C@H]3[C@H](N(C)C)C(O)=C(C(N)=O)C(=O)[C@@]3(O)C(O)=C1C2=O,,DH5a clone with KPC-136,,,0.125 µg/mL
c1ccc(CCOC2CCCc3c2[nH]c2ccccc32)cc1 (stereo not drawn),broth microdilution,MB5746 efflux-deficient hyperpermeable,,,> 32 µg/mL
